Published values of several laboratories.
Each line is one published result; not all experiments were run side by side. ± marks the error that the study gave.

| SMILES | tested on | test | system | setting | how to read | quantity | result |
| --- | --- | --- | --- | --- | --- | --- | --- |
| CN(O)C(=O)CCC(=O)NCCCN(CCCCN(CCCNC(=O)CCC(=O)N(C)O)C(=O)CCC(=O)N(C)O)C(=O)CCC(=O)N(C)O.[89Zr] | – | radio-TLC | aqueous buffer | 5 d, pH 5, 37 °C, 89Zr-labelled complex, with: DTPA 100-fold excess | – | intact complex | 99 ± 0.7% |
| COC(=O)[C@@]1(C(C)C)C=C(C(=O)Nc2cccc(C(=O)Nc3ccc(Nc4nccc(-c5cccnc5)n4)c(C)c3)c2)C(=O)CC1 | – | – | rat, plasma | 10 µM, 30 min | – | compound remaining | 94.7% |
| Br.CCCCCCn1c2c(c(=N)c3c1CCC3)CCC2 | Trypanosoma cruzi | reporter mRNA translation, inhibitor, measured: capped polyadenylated Renilla luciferase mRNA | cell-free extract | concentration not given | baseline: control RNA | relative translation | 94.4% |
| O=C(O)CN1CCN(CC(=O)O)CCN(CC(O)CN(CC(O)CN2CCN(CC(=O)O)CCN(CC(=O)O)CCN(CC(=O)O)CC2)C[C@H](O)[C@@H](O)[C@H](O)[C@H](O)CO)CCN(CC(=O)O)CC1 (some centres unmarked) | – | pH-potentiometry, measured: ZnHL | – | 25 °C, 0.15 M NaCl | – | log K | 9.12 |
| CC(C)Cn1cc(Cc2cccc(OC(C)(C)C(=O)O)c2)c2ccc(C(=O)N[C@@H](C)c3cc(F)cc(C(C)(C)C)c3)cc21 | – | – | mouse liver microsomes | 1 µM, with: microsomes 1 mg/mL | – | half-life | 57 min |
| O=C(Nc1cnccc1-c1ccc([18F])nc1)c1ccnc(NC(=O)C2CC2)c1 | – | – | FVB/NJ mice, both sexes, brain | intravenous, 15 min, median, no P-gp inhibitor | – | SUV | 0.096 |
| N#Cc1cccc(-c2ccc3ncc(-c4cc(F)cc(F)c4)c(N4CCC(NC(=O)OC5OC(C(=O)O)C(O)C(O)C5O)CC4)c3c2)c1O (centres unmarked) | – | – | human, faeces | oral, 20 mg, 120 h, 14C-paltusotine dosed | – | radioactivity recovered | 2.5 %dose |
| O=C(c1ccccc1)N1C(c2ccc(OCC3CCN(CCCF)C3)cc2)c2ccc(O)cc2CC12CC2 (centres unmarked) | – | – | C57BL/6J mouse, plasma | intraperitoneal, 25 mg/kg, group mean | – | AUC(0-t) | 8320 ng·h/mL |
| COc1ccc2c(c1)CCn1c[n+]3c(c1-2)-c1ccc(OC)cc1CC3 | – | – | female NSG mice, blood | 6 mg/kg, day 7, 5 days per week | – | Eosinophils | 11.6 ± 9.17% |
| CC(C)n1ncc2c(C(=O)NCC3CCN3)cc(C3CC3)nc21 (centres unmarked) | – | metabolic stability | mouse, liver microsomes | – | – | microsomal CLint | 59.1 µL/min/mg |
| CN1C=C/C(=C\c2cc[n+](C)c3ccccc23)c2ccccc21 | Trypanosoma cruzi | reporter mRNA translation, inhibitor, measured: capped polyadenylated Renilla luciferase mRNA | cell-free extract | concentration not given | baseline: control RNA | relative translation | 92.4% |
| [2H]C1([2H])CC[C@@H](C[C@@H](C#N)NC(=O)[C@@H]2[C@@H]3[C@H](CN2C(=O)[C@@H](NC(=O)C(F)F)C(C)(C)C)C3(C)C)C(=O)N1 | – | – | hamster hepatocytes | – | – | scaled hepatic intrinsic clearance | < 28.8 mL/min/kg |
| N=C(N)NCCC[C@@H]1NC(=O)[C@@H](NC(=O)CCCCCNC(=O)c2ccc3c(c2)C(=O)OC32c3ccc(O)cc3Oc3cc(O)ccc32)CSSC[C@@H](C(N)=O)NC(=O)[C@H](CC(=O)O)NC(=O)[C@@H]2CCCN2C(=O)CNC(=O)[C@H](CCCCN)NC(=O)[C@H](CC(=O)O)NC(=O)CNC1=O | – | ex vivo tumour dipping, immunofluorescence | human peritoneal metastasis explants | 10 µM, 90 min, 37 °C | – | tissue penetration depth | > 30 mm |
| CC(C)(O)c1ncc([S@](N)(=O)=NC(=O)Nc2c3c(cc4c2CCC4)CCC3)s1 | – | measured: Psychiatric disorders | healthy human volunteers | oral, dose not given, 14 days, multiple dose, all active arms | – | subjects with adverse events | 8% |
| CC(C)(C)C(=O)Nc1ccc2[nH]c(CN3CCC(N(CCCN4CCOCC4)CC4OC(n5cnc6c(N)ncnc65)C(O)C4O)CC3)nc2c1 (centres unmarked) | – | – | male Sprague-Dawley rat, plasma | intravenous, 20 mg/kg, 30 min | – | concentration | 1310 ng/mL |
| Nc1nnc(NCc2c(Cl)cccc2Oc2ccccc2)[nH]1 | – | – | CD1 mice | ip, 3 mg/kg daily, 1 weeks | baseline: normal mice | blood urea nitrogen | increased |
| COCC1CN(C2CCN(c3cc(OC)c(Nc4ncc(Br)c(Nc5ccc6c(c5P(C)(C)=O)OCCO6)n4)cc3C)CC2)C1 | – | – | EGFR-mutant NSCLC patients, plasma | oral, 30 mg multiple doses, geometric mean | – | Cmax at steady state | 660 ng/mL |

For quick reference, copied from above:
| SMILES | tested on | test | system | setting | how to read | quantity | result |
| --- | --- | --- | --- | --- | --- | --- | --- |
| COc1ccc2c(c1)CCn1c[n+]3c(c1-2)-c1ccc(OC)cc1CC3 | – | – | female NSG mice, blood | 6 mg/kg, day 7, 5 days per week | – | Eosinophils | 11.6 ± 9.17% |
